Assay results from different studies.
A part holds a random share of what one study measured. Values joined by “and” are separate records of one study, mostly repeats; a detail may differ.
UniProt P35626, sequence (whole entry, looked up): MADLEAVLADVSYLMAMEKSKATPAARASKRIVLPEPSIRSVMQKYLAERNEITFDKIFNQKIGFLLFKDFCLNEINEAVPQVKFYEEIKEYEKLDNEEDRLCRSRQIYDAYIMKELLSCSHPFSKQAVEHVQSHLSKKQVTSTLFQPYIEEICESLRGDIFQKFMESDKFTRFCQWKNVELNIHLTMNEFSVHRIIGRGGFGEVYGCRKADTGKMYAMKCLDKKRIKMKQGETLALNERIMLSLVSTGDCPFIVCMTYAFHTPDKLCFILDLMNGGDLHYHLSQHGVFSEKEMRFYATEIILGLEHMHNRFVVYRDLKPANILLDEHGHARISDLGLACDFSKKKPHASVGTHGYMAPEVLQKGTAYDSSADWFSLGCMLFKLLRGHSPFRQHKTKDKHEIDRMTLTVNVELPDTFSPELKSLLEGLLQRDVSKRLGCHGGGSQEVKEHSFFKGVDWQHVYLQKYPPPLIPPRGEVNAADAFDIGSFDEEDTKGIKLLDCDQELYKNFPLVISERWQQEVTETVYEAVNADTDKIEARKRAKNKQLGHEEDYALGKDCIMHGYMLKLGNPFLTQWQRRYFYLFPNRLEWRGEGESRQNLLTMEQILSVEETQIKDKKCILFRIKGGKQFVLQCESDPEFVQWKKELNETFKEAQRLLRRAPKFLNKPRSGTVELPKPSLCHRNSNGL
UniProt P36897, sequence (whole entry, looked up): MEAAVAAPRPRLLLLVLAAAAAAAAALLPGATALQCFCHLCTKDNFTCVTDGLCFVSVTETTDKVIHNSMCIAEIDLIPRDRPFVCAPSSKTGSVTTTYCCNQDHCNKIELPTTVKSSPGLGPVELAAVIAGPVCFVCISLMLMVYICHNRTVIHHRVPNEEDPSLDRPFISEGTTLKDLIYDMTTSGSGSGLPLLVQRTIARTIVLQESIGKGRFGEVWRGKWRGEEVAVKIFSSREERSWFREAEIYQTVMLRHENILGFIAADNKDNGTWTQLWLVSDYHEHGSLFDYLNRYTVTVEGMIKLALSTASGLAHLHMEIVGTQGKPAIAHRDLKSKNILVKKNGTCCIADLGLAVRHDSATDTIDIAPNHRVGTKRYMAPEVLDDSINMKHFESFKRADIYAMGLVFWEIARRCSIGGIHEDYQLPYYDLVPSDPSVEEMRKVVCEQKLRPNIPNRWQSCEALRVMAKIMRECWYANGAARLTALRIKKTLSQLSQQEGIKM
UniProt P53355, sequence (whole entry, looked up): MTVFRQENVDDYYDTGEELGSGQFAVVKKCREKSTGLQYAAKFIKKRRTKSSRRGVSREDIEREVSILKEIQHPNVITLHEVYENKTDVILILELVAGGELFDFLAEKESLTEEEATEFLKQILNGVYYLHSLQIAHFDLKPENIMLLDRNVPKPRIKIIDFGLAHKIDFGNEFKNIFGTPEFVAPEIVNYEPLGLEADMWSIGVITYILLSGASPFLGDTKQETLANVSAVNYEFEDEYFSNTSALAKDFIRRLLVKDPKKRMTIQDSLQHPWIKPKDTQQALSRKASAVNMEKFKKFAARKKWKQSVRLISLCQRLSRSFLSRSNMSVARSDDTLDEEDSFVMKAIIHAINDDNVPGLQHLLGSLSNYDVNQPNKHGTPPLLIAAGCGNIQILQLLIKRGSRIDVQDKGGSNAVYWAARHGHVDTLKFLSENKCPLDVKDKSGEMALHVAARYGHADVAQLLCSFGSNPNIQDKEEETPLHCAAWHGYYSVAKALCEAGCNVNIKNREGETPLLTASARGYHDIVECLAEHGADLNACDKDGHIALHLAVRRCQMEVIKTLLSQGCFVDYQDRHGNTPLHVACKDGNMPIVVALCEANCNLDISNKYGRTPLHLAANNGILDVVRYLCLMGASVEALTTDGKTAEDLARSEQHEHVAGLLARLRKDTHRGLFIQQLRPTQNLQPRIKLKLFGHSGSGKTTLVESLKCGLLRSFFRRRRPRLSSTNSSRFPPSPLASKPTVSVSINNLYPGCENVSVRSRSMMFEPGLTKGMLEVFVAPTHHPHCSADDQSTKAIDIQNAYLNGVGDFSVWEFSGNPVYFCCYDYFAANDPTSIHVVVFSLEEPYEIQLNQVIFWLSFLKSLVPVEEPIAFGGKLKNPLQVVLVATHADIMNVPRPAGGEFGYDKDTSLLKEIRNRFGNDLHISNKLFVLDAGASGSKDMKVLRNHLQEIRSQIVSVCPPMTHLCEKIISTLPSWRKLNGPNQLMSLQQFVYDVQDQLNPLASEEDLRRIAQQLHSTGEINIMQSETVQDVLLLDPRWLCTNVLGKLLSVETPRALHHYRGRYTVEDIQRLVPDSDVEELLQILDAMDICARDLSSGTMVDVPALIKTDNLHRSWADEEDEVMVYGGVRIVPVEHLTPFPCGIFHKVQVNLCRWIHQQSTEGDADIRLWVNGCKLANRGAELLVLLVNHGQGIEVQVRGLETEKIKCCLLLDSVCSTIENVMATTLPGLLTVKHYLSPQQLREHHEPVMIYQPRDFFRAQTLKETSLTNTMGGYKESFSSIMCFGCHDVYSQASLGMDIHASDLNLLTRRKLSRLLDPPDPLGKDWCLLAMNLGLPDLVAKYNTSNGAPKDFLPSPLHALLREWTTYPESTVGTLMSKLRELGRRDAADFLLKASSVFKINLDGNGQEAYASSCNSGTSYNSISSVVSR
UniProt Q13557, sequence (whole entry, looked up): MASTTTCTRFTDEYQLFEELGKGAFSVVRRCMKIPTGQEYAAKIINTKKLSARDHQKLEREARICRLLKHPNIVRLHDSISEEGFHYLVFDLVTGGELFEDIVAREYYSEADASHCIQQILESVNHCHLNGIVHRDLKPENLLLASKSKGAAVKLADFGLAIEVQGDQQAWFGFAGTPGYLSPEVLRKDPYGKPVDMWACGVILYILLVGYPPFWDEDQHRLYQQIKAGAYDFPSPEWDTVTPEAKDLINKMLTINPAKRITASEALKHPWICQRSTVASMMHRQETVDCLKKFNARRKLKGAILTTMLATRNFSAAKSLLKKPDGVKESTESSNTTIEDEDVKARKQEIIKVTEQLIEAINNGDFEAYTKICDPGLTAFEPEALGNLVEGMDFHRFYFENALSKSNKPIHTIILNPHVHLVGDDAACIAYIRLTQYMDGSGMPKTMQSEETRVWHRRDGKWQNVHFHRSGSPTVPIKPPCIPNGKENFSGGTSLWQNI
UniProt P37173, sequence (whole entry, looked up): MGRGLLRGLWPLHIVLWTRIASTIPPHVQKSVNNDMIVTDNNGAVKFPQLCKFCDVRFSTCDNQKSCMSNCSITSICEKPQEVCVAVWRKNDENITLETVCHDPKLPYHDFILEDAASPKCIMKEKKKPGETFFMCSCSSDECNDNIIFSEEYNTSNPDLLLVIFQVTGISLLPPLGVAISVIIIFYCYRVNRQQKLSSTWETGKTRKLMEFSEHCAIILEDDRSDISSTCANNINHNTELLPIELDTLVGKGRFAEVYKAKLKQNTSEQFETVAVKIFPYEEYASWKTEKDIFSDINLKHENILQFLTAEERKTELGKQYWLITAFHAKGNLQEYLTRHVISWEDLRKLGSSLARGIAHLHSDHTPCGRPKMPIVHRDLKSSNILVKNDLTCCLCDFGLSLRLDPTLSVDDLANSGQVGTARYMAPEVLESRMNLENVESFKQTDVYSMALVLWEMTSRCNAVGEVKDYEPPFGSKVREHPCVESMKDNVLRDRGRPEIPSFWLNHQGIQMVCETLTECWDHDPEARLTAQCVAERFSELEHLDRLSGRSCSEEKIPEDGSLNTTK
UniProt P11802, sequence (whole entry, looked up): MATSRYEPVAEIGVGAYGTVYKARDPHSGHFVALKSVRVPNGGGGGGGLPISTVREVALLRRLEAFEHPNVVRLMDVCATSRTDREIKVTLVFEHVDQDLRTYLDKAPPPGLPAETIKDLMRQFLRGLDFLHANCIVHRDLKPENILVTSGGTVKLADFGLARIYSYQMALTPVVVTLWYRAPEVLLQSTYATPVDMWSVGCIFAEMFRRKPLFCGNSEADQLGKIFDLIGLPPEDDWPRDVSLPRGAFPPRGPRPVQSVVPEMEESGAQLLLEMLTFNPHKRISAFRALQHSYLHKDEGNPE
UniProt Q9UIK4, sequence (whole entry, looked up): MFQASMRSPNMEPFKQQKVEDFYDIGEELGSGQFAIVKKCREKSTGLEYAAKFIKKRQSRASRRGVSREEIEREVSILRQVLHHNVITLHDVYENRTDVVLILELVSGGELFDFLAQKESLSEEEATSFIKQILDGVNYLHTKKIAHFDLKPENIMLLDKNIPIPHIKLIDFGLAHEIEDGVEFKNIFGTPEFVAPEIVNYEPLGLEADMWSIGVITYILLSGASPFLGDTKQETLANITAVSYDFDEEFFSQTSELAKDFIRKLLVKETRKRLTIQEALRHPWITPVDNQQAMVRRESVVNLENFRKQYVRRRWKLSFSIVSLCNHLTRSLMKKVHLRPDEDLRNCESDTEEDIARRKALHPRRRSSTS

Block 1 — cell line: HEK-293T-ACE2-TMPRSS2; technique: cell count; tested at: concentration not given
Structure (SMILES) | viability [%]
c1ccc(-c2cn3c(n2)CCc2ccc4cccnc4c2-3)cc1 | 67
Cc1oc2ncnc(N3CCCC(C(=O)N4CCC5(CC4)OCCO5)C3)c2c1C (centres unmarked) | 70
COc1cccc(NC(=O)CCC2CCN(C(=O)c3cnn(C(C)C)c3)CC2)c1 | 108
CCOC(=O)c1oc2ccc(S(=O)(=O)N(C)CCc3c(C)nn(CC)c3C)cc2c1C | 70
CC(Cc1ccsc1)Nc1ncnc2sccc12 (centres unmarked) | 84
O=C(OCCc1ccccc1/C=C\[N+](=O)[O-])c1ccc(C(F)(F)F)cc1 | 75
O=S1(=O)C=C(Br)c2ccccc21 | 68
Cc1nn(C)c(C)c1CCNS(=O)(=O)c1ccc(NC(=O)CC(C)C)cc1 | 66
CCCc1nc(-c2cc3cccc(C)c3nc2NCCN2CCc3ccccc3C2)no1 | 68
COc1ccccc1N1CCN(C(=O)c2nc(S(=O)(=O)Cc3ccccc3)ncc2Cl)CC1 | 77
COc1ccc(CCNc2ncnc3c2oc2ccccc23)cc1OC | 66
CN1CCN(CCNC(=O)Nc2ccccc2-c2ccccc2)CC1 | 69
Clc1ccc2c(Sc3nnnn3C3CCCC3)ccnc2c1 | 81
Cc1cccc(N2CCN(C(=O)c3cc4occc4c(Nc4ccc(F)cc4)n3)CC2)c1C | 66
CCN(CC)S(=O)(=O)N1CCC(C(=O)Nc2cccc(CCc3nc4cc(C)ccc4[nH]3)c2)CC1 | 66
c1cnc2c(-n3nc(C4CC4)nc3-c3csnn3)cccc2c1 | 73
CC(C)c1ccc(CN2CCCC3(CCN(C(=O)c4ccc5[nH]cnc5c4)C3)C2)cc1 (centres unmarked) | 72
COC[C@@H]1CN(C(=O)c2cc(C3CC3)[nH]n2)C[C@H]1c1nc(C2CC2)no1 | 104
CCS(=O)(=O)c1ncc(Cl)c(C(=O)Nc2cc(C)ccc2C)n1 | 77
N#CC(C#N)=C/C=C(\Sc1nnnn1-c1ccccc1)c1ccccc1 | 65
Cn1ccnc1C(Nc1ncnc2c1cnn2-c1ccc(F)cc1)c1ccccc1 (centres unmarked) | 69
CCn1nc(C)c([N+](=O)[O-])c1C(=O)NCC(=O)c1ccc(Cl)cc1 | 71
Cc1ccnc(CC(C)N(C)C(=O)c2cc3ccccc3s2)c1 (centres unmarked) | 73
COc1ccc(-c2noc(CC3CCN(C(=O)c4cncc(Br)c4)CC3)n2)cc1 | 78
Cc1ccc(S(=O)(=O)NC(C(=O)NCC(=O)N2CCCc3ccccc32)C(C)C)cc1 (centres unmarked) | 65

Block 2 — organism: Sarcocystis neurona; read-out: parasite growth; tested at: 10 µM; time: 96 h; setting: secondary screen
Structure (SMILES) | inhibition [%]
C=CCN1CC[C@]23c4c5ccc(O)c4O[C@H]2C(=O)CC[C@@]3(O)[C@H]1C5 | -7
CC(O)(CS(=O)(=O)c1ccc(F)cc1)C(=O)Nc1ccc(C#N)c(C(F)(F)F)c1 (centres unmarked) | -26.8
NC(=NCc1ccc(Cl)cc1)SCCCc1cnc[nH]1 | -22.4
C[C@]12CC[C@H](O)CC1=CC[C@@H]1[C@@H]2CC[C@]2(C)C(=O)CC[C@@H]12 | -15.2
CC(C)CC(N(C)C)C1(c2ccc(Cl)cc2)CCC1 (centres unmarked) | -38.8
CC[C@@H](C(N)=O)N1CCCC1=O | -22.7

Block 3 — read-out: enzyme activity; action: inhibitor; tested at: 0.5 µM; relative to: control
SMILES: CCn1cnc2c(Nc3cccc(Cl)c3)nc(N[C@H]3CCCC[C@H]3N)nc21
target | remaining activity [%]
GRK3 (Homo sapiens, UniProt P35626) | 89.2
Cyclin-dependent kinase 4, with cyclin D1 (CDK4, Homo sapiens, UniProt P11802) | 89.9
PRKCA (Homo sapiens, UniProt P17252) | 68.2
Protein kinase C beta type, isoform beta-I (PRKCB, Homo sapiens, UniProt P05771) | 106
OXSR1 (Homo sapiens, UniProt O95747) | 92.3
DAPK1 (Homo sapiens, UniProt P53355) | 79.1
cGMP-dependent protein kinase 1, isoform beta (PRKG1, Homo sapiens, UniProt Q13976) | 91.8
STK10 (Homo sapiens, UniProt O94804) | 75.1
TGFBR1 (Homo sapiens, UniProt P36897) | 95.6
STK39 (Homo sapiens, UniProt Q9UEW8) | 106
DAPK2 (Homo sapiens, UniProt Q9UIK4) | 99
CAMK2D (Homo sapiens, UniProt Q13557) | 89
TGFBR2 (Homo sapiens, UniProt P37173) | 91.2

Block 4 — cell line: HEK-293T/ACE2; technique: Hoechst nuclei count; tested at: concentration not given; time: 16 (unit not given); relative to: vehicle
SMILES | viability [%]
O=C1CC[C@@]2(O)[C@H]3Cc4ccc(O)c5c4[C@@]2(CCN3CC2CC2)[C@H]1O5 | 97.1
CCCNS(=O)(=O)Nc1ncnc(OCCOc2ncc(Br)cn2)c1-c1ccc(Br)cc1 | 98.3
CCCCCCC(=O)O[C@H]1CC[C@H]2[C@@H]3CCC4=CC(=O)CC[C@]4(C)[C@H]3CC[C@]12C | 101
CN(Cc1cnc2nc(N)nc(N)c2n1)c1ccc(C(=O)N[C@@H](CCC(=O)O)C(=O)O)cc1 | 88.1
C[C@]12C=CC(=O)N[C@@H]1CC[C@@H]1[C@@H]2CC[C@]2(C)[C@@H](C(=O)Nc3cc(C(F)(F)F)ccc3C(F)(F)F)CC[C@@H]12 | 106
CO[C@@]1(NC(=O)Cc2cccs2)C(=O)N2C(C(=O)O)=C(COC(N)=O)CS[C@@H]21 | 96
Cc1[nH]cnc1CN1CCc2c(c3ccccc3n2C)C1=O | 105
COc1cc(C(=O)NS(=O)(=O)c2ccccc2C)ccc1Cc1cn(C)c2ccc(NC(=O)OC3CCCC3)cc12 | 99.6
CCOC(=O)c1ccc(C#Cc2ccc3c(c2)C(C)(C)CCS3)nc1 | 95.5
C[C@]12CCC3=C4CCC(=O)C=C4CC[C@H]3[C@@H]1CC[C@@]2(O)CC#N | 108

Block 5 — host: human; medium: microsomes or S9; tested at: 2 µM; time: 0.5 h
SMILES | remaining compound
COc1cc(Cn2c(=O)[nH]c(O)c(C(C)=O)c2=O)cc(OC)c1 | 5.28%
Cc1c(C)n(CCN2CCOCC2)c2nc3c(c(N)c12)CCCC3 | 67.2%
CCOc1cc2c(cc1OCC)-n1cccc1C(c1ccccc1OC)NC2 (centres unmarked) | 78.5%

Block 6 — SMILES: [N-]=[N+]=CC(=O)CC[C@H](N)C(=O)O; host: mouse, EL4 tumour; route: intravenous; dose: 1 mg/kg
time | tumour volume
day 18 | 0 mm3
day 14 | 0 mm3 and 249 mm3 and 274 mm3 and 111 mm3
day 15 | 0 mm3
day 7 | 166 mm3 and 361 mm3 and 215 mm3 and 274 mm3 and 471 mm3 and 540 mm3 and 141 mm3 and 386 mm3
day 9 | 374 mm3 and 124 mm3 and 890 mm3 and 114 mm3 and 218 mm3 and 585 mm3 and 320 mm3 and 211 mm3
